Experimental data pooled from the literature.
Protocols differ between the studies behind these lines. Values joined by “and” are separate records of one study, mostly repeats; a detail may differ. ± gives the spread as reported.

For CC[C@H](C)[C@H](NC(=O)[C@H](CC(C)C)NC(=O)CNC(=O)[C@@H]1CCCN1C(=O)[C@H](CC(C)C)NC(=O)[C@H](C)NC(=O)[C@H](CCCCN)NC(=O)CNC(=O)[C@H](CC(C)C)NC(=O)[C@H](CCSC)NC(=O)[C@H](CCCCN)NC(=O)[C@H](C)NC(=O)[C@H](C)NC(=O)[C@H](C)NC(=O)CNC(=O)[C@H](Cc1c[nH]c2ccccc12)NC(=O)[C@@H](N)Cc1ccccc1)C(=O)N[C@@H](CO)C(=O)N[C@@H](CCSC)C(=O)N[C@@H](Cc1ccccc1)C(=O)N[C@@H](CCC(N)=O)C(=O)N[C@@H](CCCCN)C(=O)N[C@@H](CC(N)=O)C(=O)O, the EC50 was 0.9 to 1.5 µM and 1.35 µM (F11 cells; intracellular calcium, FLIPR; 0.1% BSA).
N#Cc1nn(-c2c(Cl)cc(C(F)(F)F)cc2Cl)c(N)c1[S+]([O-])C(F)(F)F (stereo not drawn) gave an EC50 of 18.1 µM (Caco-2; viability, MTT; 240 h).
For CC[C@H](C)[C@H](NC(=O)[C@H](C)NC(=O)[C@H](C)NC(=O)[C@H](CC(N)=O)NC(=O)[C@H](C)NC(=O)[C@H](C)NC(=O)[C@H](C)NC(=O)[C@H](CCCNC(=N)N)NC(=O)[C@H](CC(C)C)NC(=O)[C@@H](NC(=O)[C@H](CCC(=O)O)NC(=O)[C@@H]1CCCN1C(=O)CNC(=O)[C@H](CCCCN)NC(=O)[C@H](CCC(=O)O)NC(=O)[C@H](CCCCN)NC(=O)[C@@H](NC(=O)[C@H](Cc1ccccc1)NC(=O)[C@H](CC(=O)O)NC(=O)[C@H](CCCCN)NC(=O)[C@H](C)NC(=O)[C@H](CCCCN)NC(=O)[C@H](CC(N)=O)NC(=O)[C@H](CC(C)C)NC(=O)[C@H](Cc1c[nH]c2ccccc12)NC(=O)[C@H](CC(=O)O)NC(=O)[C@H](CCCCN)NC(=O)[C@H](Cc1c[nH]c2ccccc12)NC(=O)CN)[C@@H](C)CC)[C@@H](C)CC)C(=O)N[C@@H](CC(N)=O)C(=O)O, the EC50 was 57.9 ± 5.87 µM (HEK293 cells; intracellular calcium, FLIPR; 0.1% BSA).
[Cl][Au].c1ccc(P(c2ccccc2)c2ccccc2)cc1 has an EC50 of 18.9 µM (MCF-10A; cell growth or viability, resazurin; 72 h).
The EC50 of C[C@H]1CCC/C=C/[C@@H]2C[C@H](O)C[C@H]2[C@H](O)/C=C/C(=O)O1 is reported as 0.11 µM (MCF-10A; cell growth or viability, ATP luminescence).
O=C(NC(=O)c1c(F)cccc1F)Nc1cc(Cl)c(F)c(Cl)c1F gave an EC50 of 429 ± 24.5 µM (Caco-2; viability, MTT; 240 h).
NC(=O)CI gave an EC50 of 3.8 µM (SW480 expressing Rad51-EGFP; Rad51 nuclear foci; 24 h; reference: 10 µM camptothecin).
CC1(C)[C@H](C(=O)O[C@H](C#N)c2cccc(Oc3ccccc3)c2)[C@@H]1C=C(Br)Br has an EC50 of 136 ± 10.7 µM (Caco-2; viability, MTT; 168 h).
For CC(C)C[C@H](NC=O)C(=O)N[C@@H](C)C(=O)N[C@@H](C)C(=O)N[C@@H](CC(=O)O)C(=O)N[C@@H](CC(C)C)C(=O)N[C@@H](CC(C)C)C(=O)N[C@@H](C)C(=O)N[C@@H](C)C(=O)N[C@@H](CC(C)C)C(=O)NCC(=O)N[C@@H](CC(=O)O)C(=O)N[C@@H](CC(C)C)C(=O)N[C@@H](C)C(=O)N[C@@H](CCCCN)C(=O)N[C@@H](Cc1c[nH]c2ccccc12)C(=O)N[C@@H](CC(C)C)C(=O)N[C@@H](CC(C)C)C(=O)N[C@@H](CC(=O)O)C(=O)N[C@@H](C)C(=O)N[C@@H](CC(C)C)C(=O)N[C@@H](C)C(=O)N[C@@H](CCCCN)C(=O)N[C@@H](C)C(=O)N[C@@H](C)C(=O)N[C@@H](CCCCN)C(=O)N[C@@H](CCCCN)C(=O)O (racemic), the EC50 was 40 µM (sheep erythrocytes; turbidity; pH 7.5).
